Results from different studies.
Each numbered part is a random draw from the data of one study; scales do not carry over between parts. Changes are numbered by the printed parent chain.

Set 1
Target: RNA binding protein fox-1 homolog 2, RRM domain, GST-SBP tag (RBFOX2, Homo sapiens, UniProt O43251-10, residues 100-194)
Technique: RNA Bind-n-Seq
Form: RNA
Medium: in vitro
Tested at: 365 nM
Notes: natural RNA segment, single round, ends assumed
Reference: no-protein control
Reading: higher = stronger binding
Measurement: RBNS enrichment (R)
Construct (chain): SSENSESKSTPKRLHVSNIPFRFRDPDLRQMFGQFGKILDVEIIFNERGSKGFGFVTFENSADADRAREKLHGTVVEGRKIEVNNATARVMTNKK
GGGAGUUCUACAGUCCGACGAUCUGUAAGCCAGGCAUGGAGGGCUCCUGCCCUUCUGCUGAGCCACAGCCCAUUGCAGCACUGUGCUGGCCAGACUUCAGCUGCCUUGGGAACUGAAGCCCUGCCACUGUUGCUGGAAUUCUCGGGUGCCAA: 0.349
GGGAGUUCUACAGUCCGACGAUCUUCCUGGUUCUGGGGAGAAGGGUGUGUGAAGGAGAAUAAAGCAGCCCUUUGUCUUAAAGAAGACUAAUGUUAAUUGUUCUCAGAACUGGACGUUUUUUUUCCCCCCAUCAUGGAAUUCUCGGGUGCCAA: 0.388
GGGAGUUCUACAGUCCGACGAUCUCAUACACCUCACCUGCCUUGGCAAGCCUAUUUUAGUGAUAUGGCAGCACGGAUAUAACACUAUGCAUUAAAAGCACUUUUUGUAAUAAGUUUAAUAUCCUAAAAGGAAUUGGAAUUCUCGGGUGCCAA: 0.764
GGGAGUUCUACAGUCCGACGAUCCGAUUGUUUCGGAUCAUAUUGAUCUCUUUCCUUUUUCCUUUUGUCCUUUCACUGUAUGACUUGAAUCAGUUUUGAUUCUAUUUGUAAGUGUUUCUUGUCGUGAGGCACCUUGGAAUUCUCGGGUGCCAA: 1.08
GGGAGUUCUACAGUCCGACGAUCAGUAGCACAGAUGUCUGCUCCUCCUCUUGAACUUGGGUGGGAAACCCCACCCAAAAGCCCCCUUUGUUACUUAGGCAAUUCCCCUUCCCUGACUCCCGAGGGCUAGGGCUUGGAAUUCUCGGGUGCCAA: 0.354
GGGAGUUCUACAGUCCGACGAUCCCGUCCCUCAGUGAUACGUACAGCCAAAAAGGACCAACUGGCUUCUGUGCACUAGCCUGUGAUUAACUUGCUUAGUAUGGUUCUCAGAUCUUGACAGUAUAUUUGAAACUUGGAAUUCUCGGGUGCCAA: 0.369
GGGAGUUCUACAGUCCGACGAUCGUUAUUAACAAGAUAUUUUGAGUACAAUAUGGCUCAUUGACUUUUCCAUUACAUCUGAGGAUUCCAGAGUCCUCUGUUCAUCCCUGGGAUAGAGUGAGCCCUCUUGCGUCUGGAAUUCUCGGGUGCCAA: 1.09
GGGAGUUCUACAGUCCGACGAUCAGUAGACAUUAUGUUACUAAAUCAGCACUUUAAAAUCUUUGGUUCUCUAAUUCAUAUGAAUUUGCUGUUUGCUCUAAUUUCUUUGGGCUCUUCUAAUUUGAGUGGAGUACUGGAAUUCUCGGGUGCCAA: 0.493
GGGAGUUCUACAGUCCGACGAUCUCAUCCUUGCUGUGGGUCAUCCUUGCUGUGGAGAUCCAUUCCCCACCUUUCCUGUGGCCCAACCUUUUAUUUAAAUGUGCUACCCUCUGCCUCAAGGCUUGGUUCCUGGAUGGAAUUCUCGGGUGCCAA: 0.544
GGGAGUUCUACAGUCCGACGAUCACUGUGUCUGCCCAGUAACCUGUUCUGAGUUACUGGUAAAGUCGUGGGUGGGUGAAUGGCAGGCUUCUGUAGGAACUUGUGUAAUUAUGCCAUUUUUAUAUUCCUAAUAAUGGAAUUCUCGGGUGCCAA: 0.661
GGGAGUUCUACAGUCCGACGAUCGCCACAGCGUAGGUCAUUGCUUGAAAAAAAUGACAGUGACAAUGGAGUGUGACCUUGGUGUACUGUGGCAGCCCAGAUGACUGAGUGCUACAGACGAGUGACCCUUAGAUUGGAAUUCUCGGGUGCCAA: 1.04
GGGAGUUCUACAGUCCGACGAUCAAGCAUCUUUGAGGAAACUCCUACUUCAGUUCUUUUGUUAUGAUGAAGACAUUUGUGAGAGAGGAGAUGAUUAGAAUUCUAGUAAUGUACUUUUAAGAUGUUACAGAUACUGGAAUUCUCGGGUGCCAA: 0.892

Set 2
Target: CCND2, cyclin fold, Cln2 fusion (human)
Technique: yeast growth competition, sequencing
Medium: yeast
Notes: weak parent motif
Reference: not given
Reading: higher = stronger binding
Measurement: normalised enrichment score
Parent: E2F1 docking peptide (human); PPVKRRLDLETDH
PPVKRRHDLETDH [L7H]: -0.138
PPVKRRLDLEPDH [T11P]: 0.323
PPVKRRKDLETDH [L7K]: 0.381
IPVKRRLDLETDH [P1I]: 0.149
PPVKRRLDLWTDH [E10W]: 0.479
PQVKRRLDLETDH [P2Q]: 0.237
PPVKRRLDLETDC [H13C]: 0.0942
PPVKRYLDLETDH [R6Y]: 0.0983
PPVKRCLDLETDH [R6C]: 0.0728
PPVKRRLDLETAH [D12A]: 0.221
PPVKRILDLETDH [R6I]: 0.198
PPVKRRLDLETDW [H13W]: 0.385
PAVKRRLDLETDH [P2A]: 0.211
PMVKRRLDLETDH [P2M]: -0.0653
PPVKRRLDLETRH [D12R]: 0.0658
PSVKRRLDLETDH [P2S]: 0.189
PPVKRRLRLETDH [D8R]: -0.108
PPVKRRLYLETDH [D8Y]: -0.0182
PPTKRRLDLETDH [V3T]: 0.285

Set 3
Target: Ras GTPase-activating protein-binding protein 1, full length (G3BP1, Homo sapiens, UniProt Q13283)
UniProt Q13283, sequence (whole entry, looked up): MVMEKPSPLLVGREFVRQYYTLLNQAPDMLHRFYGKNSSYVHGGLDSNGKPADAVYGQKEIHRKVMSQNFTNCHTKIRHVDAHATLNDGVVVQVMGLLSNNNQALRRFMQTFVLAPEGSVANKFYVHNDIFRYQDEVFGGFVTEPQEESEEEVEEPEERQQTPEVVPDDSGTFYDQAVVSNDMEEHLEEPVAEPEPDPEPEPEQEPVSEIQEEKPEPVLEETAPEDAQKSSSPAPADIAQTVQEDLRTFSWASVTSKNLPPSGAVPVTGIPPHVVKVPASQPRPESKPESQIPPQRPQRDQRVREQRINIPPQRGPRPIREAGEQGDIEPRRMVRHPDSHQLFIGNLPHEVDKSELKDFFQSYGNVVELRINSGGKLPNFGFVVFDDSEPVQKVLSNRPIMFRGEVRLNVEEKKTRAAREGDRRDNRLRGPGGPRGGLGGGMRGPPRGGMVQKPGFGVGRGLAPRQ
Technique: RNA Bind-n-Seq
Form: RNA
Medium: in vitro
Tested at: 200 nM
Notes: whole 134-nt RNA, ends assumed
With: 150 mM KCl
Reference: input library
Reading: higher = stronger binding
Measurement: log2 enrichment
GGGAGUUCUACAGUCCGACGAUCUGGGAGGUGGAUUUUGUUUAUUUUUUUAGCUCAUUUCCAGGGGUGGGGAUUUUUUUUUAAUAUGUGUCAUGAAUAAAGUUGUUUUUGAAAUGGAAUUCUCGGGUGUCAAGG: 0.673
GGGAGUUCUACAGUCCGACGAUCUAACUUUAGAGGGGGAUCUGAUGGAUAUGGCAGUGGACGUGGAUUUGGGGAUGGCUAUAAUGGGUAUGGAGGAGGACCUGGAGGUGGCAAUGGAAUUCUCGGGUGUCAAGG: 0.631
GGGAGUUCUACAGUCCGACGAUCUAACUUUAGAGGAGGAUCUGAUGGAUAUGGCAGUGCACGUGGAUUUGGGGAUGGCUAUAAUGGGUAUGGAGGAGGACCUGGAGGUGGCAAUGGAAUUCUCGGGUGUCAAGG: 0.297
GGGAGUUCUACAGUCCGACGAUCAAGUCCUGUGCUACACAUCGUAUGUACCGAAUCGGGUUUUUGGGUUUUUGGGAGGGAAAGUAUUAUGUUACGCCGUUCGGAUCUGCACUUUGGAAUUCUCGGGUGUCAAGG: -0.0552
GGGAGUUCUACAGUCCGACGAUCCUGUGCUACACAUCGUAUGUACCGAAUCGGGAAAAAAAGGGGAAAAAAAGGGAAAAAAAGGAAAGUAUUAUGUUACGCCGUUCGGAUCUGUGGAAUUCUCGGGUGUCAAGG: -0.804
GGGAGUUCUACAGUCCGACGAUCAAGUCCUGUGCUACACAUCGUAUGUACCGAAUCGGCCCCGGCCCCGGGGCCCCGGGAAAGUAUUAUGUUACGCCGUUCGGAUCUGCACUUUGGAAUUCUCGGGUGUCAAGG: -1.13
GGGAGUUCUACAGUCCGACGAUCCACAGACAACACGCACCCACACAGACACAGAGGGAAGGGGUUGGGAUGGGGACAGGGUGCACAGCAAAGCGGGGUAGGACCCCAGCCCCUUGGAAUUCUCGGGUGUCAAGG: 1.97
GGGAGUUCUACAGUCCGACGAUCAAGUCCUGUGCUACACAUCGUAUGUACCGAAUCGGUGGUUUUUUUGGAAAAAAAGGAAAGUAUUAUGUUACGCCGUUCGGAUCUGCACUUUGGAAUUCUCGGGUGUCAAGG: -1.1
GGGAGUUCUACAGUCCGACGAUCCUCAAGUCCUGUGCUACACAUCGUAUGUACCGAAUCGGGAGGGUGGGUUUGGGAAAGUAUUAUGUUACGCCGUUCGGAUCUGCACUUCCAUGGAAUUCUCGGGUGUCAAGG: 0.928
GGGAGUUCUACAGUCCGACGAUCUCCUGUGCUACACAUCGUAUGUACCGAAUCGGGAAAAAAGGGAAAAAAGGGGAAAAAAGGAAAGUAUUAUGUUACGCCGUUCGGAUCUGCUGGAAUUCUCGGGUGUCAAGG: -0.535

Set 4
Target: Sal-like protein 4, full length isoform A (SALL4, Homo sapiens, UniProt Q9UJQ4, residues 1-1053)
UniProt Q9UJQ4, sequence (whole entry, looked up): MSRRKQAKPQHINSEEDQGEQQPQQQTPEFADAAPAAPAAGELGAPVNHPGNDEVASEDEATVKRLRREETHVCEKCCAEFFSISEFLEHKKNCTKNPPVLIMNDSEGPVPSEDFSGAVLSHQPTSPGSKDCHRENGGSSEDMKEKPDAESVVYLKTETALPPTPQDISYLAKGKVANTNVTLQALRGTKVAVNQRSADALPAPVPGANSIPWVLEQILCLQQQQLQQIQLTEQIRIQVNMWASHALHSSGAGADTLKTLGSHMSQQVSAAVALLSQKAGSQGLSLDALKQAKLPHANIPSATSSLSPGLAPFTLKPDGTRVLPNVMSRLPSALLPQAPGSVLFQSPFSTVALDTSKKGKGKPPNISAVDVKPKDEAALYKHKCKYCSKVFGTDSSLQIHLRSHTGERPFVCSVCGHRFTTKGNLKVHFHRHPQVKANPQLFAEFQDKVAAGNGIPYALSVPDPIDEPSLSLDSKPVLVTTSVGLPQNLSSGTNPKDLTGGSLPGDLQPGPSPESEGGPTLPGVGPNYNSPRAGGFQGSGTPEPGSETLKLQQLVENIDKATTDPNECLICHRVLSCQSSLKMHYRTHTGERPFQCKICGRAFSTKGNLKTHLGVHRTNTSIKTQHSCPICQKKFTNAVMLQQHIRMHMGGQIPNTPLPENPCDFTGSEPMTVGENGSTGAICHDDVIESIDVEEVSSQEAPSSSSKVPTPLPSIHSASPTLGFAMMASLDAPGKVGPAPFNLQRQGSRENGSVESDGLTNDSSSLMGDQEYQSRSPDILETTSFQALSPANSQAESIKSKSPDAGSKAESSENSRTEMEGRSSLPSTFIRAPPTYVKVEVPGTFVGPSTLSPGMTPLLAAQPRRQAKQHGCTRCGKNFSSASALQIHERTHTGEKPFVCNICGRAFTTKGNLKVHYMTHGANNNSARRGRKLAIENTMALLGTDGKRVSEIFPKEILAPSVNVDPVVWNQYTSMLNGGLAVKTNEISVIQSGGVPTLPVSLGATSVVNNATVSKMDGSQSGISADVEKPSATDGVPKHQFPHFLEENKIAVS
Technique: universal PBM
Form: double-stranded DNA, one strand shown
Medium: in vitro
Tested at: 600 nM
Notes: 8-mer, flanks averaged, mean of replicates
Reading: higher = stronger binding
Measurement: E-score
AAGTAAAC: 0.162
CCCCACGG: -0.36
AGGAAGGG: -0.093
ACCTAACG: -0.035
AAGCCTAC: -0.037
GGAGTCGA: -0.22
CACTGGCA: -0.0946
AATTAACA: 0.306
GGATGACC: -0.259
CGAGAGCG: -0.286
CCCACCCG: -0.19
CTTTCGAC: 0.0159
CCCATCAA: 0.0779
AGGTACAC: -0.114
GCTTTACA: 0.0259
CTCAGAAG: -0.176

Other studies, line by line
PhoQ, residues 284 288 289 292 302 303 ALASRC
fold induction (PhoP, residues 12 14 15 18 19 AQCLL (Escherichia coli, UniProt P23836); Sort-seq, item: YFP reporter; E. coli; PhoQ-PhoP variant library, with: 10 µM Mg2+; reference: high Mg2+ state, higher = stronger signaling): 0.571

For quick reference, copied from above (set 2):
PPVKRRKDLETDH [L7K]: 0.381
IPVKRRLDLETDH [P1I]: 0.149
PPVKRRLDLWTDH [E10W]: 0.479
PQVKRRLDLETDH [P2Q]: 0.237
PPVKRRLDLETDC [H13C]: 0.0942
PPVKRYLDLETDH [R6Y]: 0.0983
PPVKRCLDLETDH [R6C]: 0.0728
PPVKRRLDLETAH [D12A]: 0.221
PPVKRILDLETDH [R6I]: 0.198
